Experimental data collected from several papers.
Each line is one published result; not all experiments were run side by side. Values joined by “and” are separate records of one study, mostly repeats; a detail may differ.
Target: Mitogen-activated protein kinase kinase kinase 14 (MAP3K14, Homo sapiens, UniProt Q99558)

For `Nc1ncc2c(n1)-c1c([nH]c3ccc(C4=CCOCC4)cc13)CCC2`, the remaining binding was 100% (binding, competition with immobilised ligand; 1 µM).
For `COc1cc(Nc2nc(C)cc(-c3cnn4nc(OC)ccc34)n2)cc(C(F)(F)F)c1`, the remaining binding was 98% (KINOMEscan; 1 µM, NIK; relative to: DMSO).
`NC(=O)[C@@H](O)C[C@H]1CCc2sc3ncnc(O[C@H]4CC[C@H](N5CCOCC5)CC4)c3c21` has an inhibition of -13% (enzyme activity, inhibitor; 10 µM).
With `C=CC(=O)N1CCc2ccc(-n3c(=O)ccc4cnc5ccc(-c6cnn(C)c6)cc5c43)cc21` the remaining binding was 73% (KINOMEscan; 1 µM; relative to: DMSO control).
With `C=CC(=O)N1CCCC(n2c(=O)c3ncccc3n(Cc3ccc(Oc4ccccc4)cc3)c2=O)C1` (centres unmarked) the remaining binding was 66% (cell-free assay, competition with immobilised ligand; 1 µM).
For `C=CC(=O)N1Cc2nc(-c3cc(-c4cc(Cl)cnc4Cl)c(F)cc3F)n(-c3ccncn3)c2C1`, the inhibition was -0.9% (cell-free assay, inhibitor; 1 µM).
`COCC12C(=O)NC3C4(C(OC)CC1O)C1CC5(O)C(OC)C(O)C(OC(C)=O)(C1C5OC(=O)c1ccccc1)C3(O)C(OC)C24` (centres unmarked) gave a remaining activity of 84% and 96% (kinase activity, inhibitor, ProQinase kinase profiling; 25 µM; relative to: control).
For `CNC1C[S+]2CC[S+]3CC[S+](C1)[Ru-4]321([N]=C=S)[n]2c3ccc(OC)cc3c3c4c(c5cc(F)c[n+]1c5c32)C(=O)NC4=O` (centres unmarked), the remaining binding was 100% (KinomeScan; 0.1 µM; relative to: untreated).
`C[C@H]1CN(C(=O)c2cn(-c3ccnc(N)n3)c3cc(C#CC4(O)CCCCC4)ccc23)CCN1` gave an inhibition of 31% (cell-free assay, TR-FRET; 1 µM).
`CN1CCN(Cc2ccc(-c3ccc(CO[C@H]4CCC[C@@H]4NC(=O)c4cc(-c5cnn(C)c5)cnc4N)cc3)cc2)CC1` has an inhibition of -2% (enzyme activity, inhibitor; 0.1 µM).
`CNC(=O)C1CCN(c2cc(C)c(F)cc2NC(=O)c2ccc(-c3cc(O)ccc3C)c(C)c2)CC1` has a remaining binding of 63% (binding, competition with immobilised ligand; 1 µM).
`Cc1cnc2nc1Nc1cccc(c1)COC/C=C/COCc1cc(ccc1OCCN1CCOCC1)N2` has a remaining binding of 80% (binding, competition with immobilised ligand; 0.1 µM).
For `CCn1cc(C(=O)O)c(=O)c2c(N)c(F)c(NC3CCCCC3)cc21`, the inhibition was 9.3% (kinase activity; 0.1 µM, added: ATP at Km).
The inhibition of `NC(=O)C[C@H]1CCc2sc3ncnc(O[C@H]4CC[C@H](N5CCOCC5)CC4)c3c21` is reported as -6% (enzyme activity, inhibitor; 10 µM).
`COc1cc(Nc2nccc(-c3cnn4nc(OC)ccc34)n2)cc(C(F)(F)F)c1` gave a remaining binding of 100% (binding, competition with immobilised ligand; 1 µM).
With `CC(C)=CC1OC(C)(C)C2C=C3C(=O)C(Cl)=CC(O)C3C3C(O)C4OC4C(=O)C132` (centres unmarked) the remaining binding was 76% (cell-free assay, competition with immobilised ligand; 10 µM).
`COc1c(Cl)cccc1Nc1c(-c2ccncc2C#C[C@@]2(C)CCCN2C(=O)/C=C/CN(C)C)[nH]c2c1C(=O)NCC2` has a remaining binding of 78% (binding, competition with immobilised ligand; 3 µM).

Repeated from above:
`COCC12C(=O)NC3C4(C(OC)CC1O)C1CC5(O)C(OC)C(O)C(OC(C)=O)(C1C5OC(=O)c1ccccc1)C3(O)C(OC)C24` (centres unmarked) gave a remaining activity of 84% and 96% (kinase activity, inhibitor, ProQinase kinase profiling; 25 µM; relative to: control).
For `CNC1C[S+]2CC[S+]3CC[S+](C1)[Ru-4]321([N]=C=S)[n]2c3ccc(OC)cc3c3c4c(c5cc(F)c[n+]1c5c32)C(=O)NC4=O` (centres unmarked), the remaining binding was 100% (KinomeScan; 0.1 µM; relative to: untreated).
